Measurements gathered from unrelated publications.
Lines come from different studies, so protocols differ. Several values in a cell are separate wells, animals, samples, runs or records. ± gives the spread as reported.
uncharacterized protein: uncharacterized protein (Anopheles coluzzii, UniProt A0A6E8VQK1)
HLA class I histocompatibility antigen, A alpha chain: HLA class I histocompatibility antigen, A alpha chain (Homo sapiens, UniProt P04439)
Epithelial sodium channel subunit beta: Epithelial sodium channel subunit beta (Homo sapiens, UniProt P51168)
Sequence of UniProt P51168 (whole entry, looked up): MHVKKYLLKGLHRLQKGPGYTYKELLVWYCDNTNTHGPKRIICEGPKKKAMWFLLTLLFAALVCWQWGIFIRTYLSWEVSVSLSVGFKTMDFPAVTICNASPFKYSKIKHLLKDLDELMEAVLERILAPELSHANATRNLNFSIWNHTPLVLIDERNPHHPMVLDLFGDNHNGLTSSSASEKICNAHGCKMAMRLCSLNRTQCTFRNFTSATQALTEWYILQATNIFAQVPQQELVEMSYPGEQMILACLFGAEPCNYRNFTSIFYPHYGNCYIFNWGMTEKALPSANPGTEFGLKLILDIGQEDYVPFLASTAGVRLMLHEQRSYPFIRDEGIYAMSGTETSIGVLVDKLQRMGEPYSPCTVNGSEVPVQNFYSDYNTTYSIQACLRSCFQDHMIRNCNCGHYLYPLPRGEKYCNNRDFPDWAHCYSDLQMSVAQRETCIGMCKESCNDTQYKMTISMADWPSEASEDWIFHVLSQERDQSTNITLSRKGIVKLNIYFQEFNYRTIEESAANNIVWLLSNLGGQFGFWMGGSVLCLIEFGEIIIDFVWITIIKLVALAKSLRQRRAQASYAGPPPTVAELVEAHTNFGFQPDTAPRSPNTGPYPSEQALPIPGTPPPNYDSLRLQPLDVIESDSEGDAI
gag-pol K653T reverse transcriptase: Gag-Pol polyprotein, reverse transcriptase (gag-pol, Human immunodeficiency virus type 1 group M subtype B, UniProt P04585, K653T)
rep main protease: Replicase polyprotein 1ab, main protease (rep, Severe acute respiratory syndrome coronavirus 2, UniProt P0DTD1)
Sequence of UniProt O35659 (whole entry, looked up): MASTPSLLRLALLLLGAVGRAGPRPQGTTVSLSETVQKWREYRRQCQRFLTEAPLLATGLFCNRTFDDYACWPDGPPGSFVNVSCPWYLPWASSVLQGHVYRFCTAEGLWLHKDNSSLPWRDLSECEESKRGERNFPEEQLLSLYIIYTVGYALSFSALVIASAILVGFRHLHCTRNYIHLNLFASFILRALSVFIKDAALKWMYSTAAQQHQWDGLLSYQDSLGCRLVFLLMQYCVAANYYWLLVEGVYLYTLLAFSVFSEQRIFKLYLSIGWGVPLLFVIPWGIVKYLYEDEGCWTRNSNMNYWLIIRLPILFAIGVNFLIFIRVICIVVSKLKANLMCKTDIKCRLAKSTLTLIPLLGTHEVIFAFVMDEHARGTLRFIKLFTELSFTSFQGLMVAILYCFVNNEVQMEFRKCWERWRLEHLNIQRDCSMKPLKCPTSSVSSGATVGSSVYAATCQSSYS
Sequence of UniProt O15393 (whole entry, looked up): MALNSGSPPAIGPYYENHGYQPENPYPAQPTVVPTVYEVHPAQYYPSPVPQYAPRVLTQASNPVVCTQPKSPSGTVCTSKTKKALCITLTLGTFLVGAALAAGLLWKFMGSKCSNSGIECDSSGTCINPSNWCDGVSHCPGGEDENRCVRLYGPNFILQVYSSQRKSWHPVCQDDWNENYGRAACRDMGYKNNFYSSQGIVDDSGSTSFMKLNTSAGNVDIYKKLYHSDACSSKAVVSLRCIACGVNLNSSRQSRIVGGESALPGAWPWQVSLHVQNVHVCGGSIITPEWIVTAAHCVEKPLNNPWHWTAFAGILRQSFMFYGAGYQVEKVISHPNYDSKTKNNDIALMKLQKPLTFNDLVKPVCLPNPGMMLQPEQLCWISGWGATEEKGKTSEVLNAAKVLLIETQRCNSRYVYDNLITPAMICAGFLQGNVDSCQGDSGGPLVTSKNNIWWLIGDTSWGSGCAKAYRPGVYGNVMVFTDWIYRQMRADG
Sequence of UniProt P04756 (whole entry, looked up): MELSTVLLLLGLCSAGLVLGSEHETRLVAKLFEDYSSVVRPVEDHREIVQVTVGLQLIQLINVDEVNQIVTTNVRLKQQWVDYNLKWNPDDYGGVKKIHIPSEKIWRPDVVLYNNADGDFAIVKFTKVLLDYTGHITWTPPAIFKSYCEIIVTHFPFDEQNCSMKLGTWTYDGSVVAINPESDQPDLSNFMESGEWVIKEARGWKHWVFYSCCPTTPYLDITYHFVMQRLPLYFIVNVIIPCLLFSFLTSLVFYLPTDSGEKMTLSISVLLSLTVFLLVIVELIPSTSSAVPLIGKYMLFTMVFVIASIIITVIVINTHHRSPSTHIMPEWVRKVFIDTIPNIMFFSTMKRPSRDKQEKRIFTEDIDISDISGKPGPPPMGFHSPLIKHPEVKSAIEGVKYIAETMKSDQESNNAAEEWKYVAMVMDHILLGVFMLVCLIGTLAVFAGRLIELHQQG
Sequence of UniProt P02716 (whole entry, looked up): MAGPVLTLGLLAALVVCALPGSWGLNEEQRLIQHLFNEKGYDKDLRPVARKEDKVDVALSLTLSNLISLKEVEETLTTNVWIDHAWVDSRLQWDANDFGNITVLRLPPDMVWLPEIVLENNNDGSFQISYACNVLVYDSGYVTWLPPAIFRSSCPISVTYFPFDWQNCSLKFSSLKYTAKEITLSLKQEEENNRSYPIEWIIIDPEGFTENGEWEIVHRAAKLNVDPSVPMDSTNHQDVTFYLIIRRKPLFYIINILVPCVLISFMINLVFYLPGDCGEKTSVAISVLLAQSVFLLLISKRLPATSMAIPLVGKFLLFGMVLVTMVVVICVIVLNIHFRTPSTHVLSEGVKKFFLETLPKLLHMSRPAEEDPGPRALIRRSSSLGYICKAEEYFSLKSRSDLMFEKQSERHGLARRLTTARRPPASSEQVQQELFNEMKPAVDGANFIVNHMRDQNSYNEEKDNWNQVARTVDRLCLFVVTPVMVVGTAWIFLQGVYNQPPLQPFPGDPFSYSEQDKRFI
Sequence of UniProt P06828 (whole entry, looked up): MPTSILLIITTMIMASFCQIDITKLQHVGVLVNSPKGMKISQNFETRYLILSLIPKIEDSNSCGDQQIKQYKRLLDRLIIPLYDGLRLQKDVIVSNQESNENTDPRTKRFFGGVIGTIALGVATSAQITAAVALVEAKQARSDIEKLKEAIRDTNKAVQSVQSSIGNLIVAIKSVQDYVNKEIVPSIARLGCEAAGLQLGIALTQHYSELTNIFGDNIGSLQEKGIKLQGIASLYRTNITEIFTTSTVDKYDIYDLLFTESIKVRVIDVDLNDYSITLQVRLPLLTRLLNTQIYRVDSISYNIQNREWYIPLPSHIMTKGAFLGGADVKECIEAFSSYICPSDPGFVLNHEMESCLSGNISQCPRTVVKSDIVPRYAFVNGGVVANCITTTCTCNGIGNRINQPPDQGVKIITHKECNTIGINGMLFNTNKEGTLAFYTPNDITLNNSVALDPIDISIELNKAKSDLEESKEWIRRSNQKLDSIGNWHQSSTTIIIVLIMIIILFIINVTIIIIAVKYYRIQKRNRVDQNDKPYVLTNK
Sequence of UniProt Q9NSA0 (whole entry, looked up): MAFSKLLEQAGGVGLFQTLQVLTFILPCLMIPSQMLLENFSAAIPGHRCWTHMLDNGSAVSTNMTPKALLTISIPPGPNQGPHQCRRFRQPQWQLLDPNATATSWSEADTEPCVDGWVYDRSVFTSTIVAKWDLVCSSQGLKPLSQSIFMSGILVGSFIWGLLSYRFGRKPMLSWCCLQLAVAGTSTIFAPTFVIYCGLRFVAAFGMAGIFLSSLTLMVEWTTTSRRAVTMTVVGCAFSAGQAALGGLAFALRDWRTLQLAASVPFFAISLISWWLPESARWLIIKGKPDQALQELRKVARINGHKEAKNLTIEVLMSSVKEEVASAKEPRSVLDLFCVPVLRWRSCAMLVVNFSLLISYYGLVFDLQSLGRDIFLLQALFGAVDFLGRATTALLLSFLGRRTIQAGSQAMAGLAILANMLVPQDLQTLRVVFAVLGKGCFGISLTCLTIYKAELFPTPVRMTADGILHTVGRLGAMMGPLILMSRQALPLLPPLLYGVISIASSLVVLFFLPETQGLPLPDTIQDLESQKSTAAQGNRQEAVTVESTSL
Sequence of UniProt P20782 (whole entry, looked up): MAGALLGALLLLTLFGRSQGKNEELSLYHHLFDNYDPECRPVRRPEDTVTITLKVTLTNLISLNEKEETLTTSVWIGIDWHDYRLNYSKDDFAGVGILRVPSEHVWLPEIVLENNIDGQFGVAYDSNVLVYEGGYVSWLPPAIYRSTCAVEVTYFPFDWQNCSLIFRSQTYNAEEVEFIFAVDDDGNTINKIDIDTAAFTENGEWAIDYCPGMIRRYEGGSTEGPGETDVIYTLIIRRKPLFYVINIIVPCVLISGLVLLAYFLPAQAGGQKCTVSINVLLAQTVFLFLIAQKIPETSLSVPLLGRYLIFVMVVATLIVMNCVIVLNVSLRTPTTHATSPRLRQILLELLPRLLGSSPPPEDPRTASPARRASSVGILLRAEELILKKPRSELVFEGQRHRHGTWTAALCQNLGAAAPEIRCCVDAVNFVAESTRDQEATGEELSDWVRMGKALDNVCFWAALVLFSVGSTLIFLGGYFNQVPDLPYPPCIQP

Substance	target or system	assay	system	conditions	how to read	measurement	result
CCOC(=O)CC(SP(=S)(OC)OC)C(=O)OCC (stereo not shown)	uncharacterized protein	enzyme activity, inhibitor	Sf9 cell homogenate	0.0004546 µM, 0.1667 h, with: α-naphthyl acetate substrate	relative to: no inhibitor	remaining activity	101%
Nc1nc2c(ncn2[C@H]2C[C@H](O)[C@@H](COP(=O)(O)OP(=O)(O)OP(=O)(O)O)O2)c(=O)[nH]1	Gag-Pol polyprotein, reverse transcriptase (gag-pol, Human immunodeficiency virus type 1 group M subtype B, UniProt P04585, K653A)	nucleotide misinsertion, steady-state kinetics		K66A mutant RT, with: opposite template T		Km	74.4 ± 43.6 µM
O=c1c(I)ccc2n1C[C@@H]1CNC[C@H]2C1	α7* nAChR, mouse		DBA/2J mice, dentate gyrus granular layer	intravenous infusion, 0.2 mg/kg/h, 7 days	relative to: saline	change in binding sites	63.5%
RASILSGGK	HLA class I histocompatibility antigen, A alpha chain	peptide-MHC complex stability, iTopia off-rate	peptide			dissociation half-life	30 min
CC[C@H](C)[C@H](NC(=O)[C@@H](NC(=O)[C@H](CC(C)C)NC(=O)[C@H](CC(N)=O)NC(=O)[C@H](CC(=O)O)NC(=O)[C@H](CCC(=O)O)NC(=O)[C@@H](NC(=O)[C@@H](N)CCCNC(=N)N)[C@@H](C)CC)C(C)C)C(=O)N[C@H](C(=O)N[C@@H](CCCNC(=N)N)C(=O)O)[C@@H](C)CC	Epithelial sodium channel subunit beta	binding, bio-layer interferometry				koff	0.0507 s⁻¹
N[C@@H](C[C@]1(C(=O)O)C[C@H]2OC[C@@H](O)[C@@H](O)[C@H]2O1)C(=O)O	Glutamate receptor ionotropic, kainate 2 (Grik2, Rattus norvegicus, UniProt P42260, Y443F)	[3H]kainate displacement			relative to: wild-type GluK2	affinity decrease	100 fold
AKNCRAPRK	HLA class I histocompatibility antigen, A alpha chain	iTopia binding	peptide	11 µM, 18 h, 21 °C	relative to: positive control	peptide binding	80.2%
Nc1ccn([C@H]2C[C@H](O)[C@@H](COP(=O)(O)OP(=O)(O)OP(=O)(O)O)O2)c(=O)n1	gag-pol K653T reverse transcriptase	nucleotide misinsertion, steady-state kinetics		K66T mutant RT, with: opposite template T		Km	1620 ± 656 µM
RNCRAPRKK	HLA class I histocompatibility antigen, A alpha chain	peptide binding, iTopia affinity	peptide			ED50	23.7 µM
Cc1cn(COCCOP(=O)(O)OP(=O)(O)OP(=O)(O)O)c(=O)[nH]c1=O	Gag-Pol polyprotein, reverse transcriptase p66 homodimer (gag-pol, Human immunodeficiency virus type 1 group M subtype B, UniProt P04585)	substrate				Km	0.97 ± 0.28 µM
Nc1ncnc2c([C@@H]3N[C@H](CO)[C@@H](O)[C@H]3O)c[nH]c12	Marburg virus	viral RNA in cell lysate	HeLa, Musoke	50 µM, 1 h		inhibition	96.9%
CCN(CC)c1nc(C)cc(OP(=S)(OC)OC)n1	uncharacterized protein	enzyme activity, inhibitor	Sf9 cell homogenate	22.94 µM, 0.1667 h, with: α-naphthyl acetate substrate	relative to: no inhibitor	remaining activity	94.9%
Cn1cnc(Cn2c(=O)[nH]/c(=N\c3cc4cn(C)nc4cc3Cl)n(Cc3cc(F)c(F)cc3F)c2=O)n1			human, moderate renal impairment	oral, 375 mg, vessel puncture site haemorrhage TEAE, Moderate severity		patients with adverse event	0%
O=C(NCCCCN1CCOCC1)c1cc2ccccc2o1	rep main protease	viral replication, Gluc reporter	SARS-CoV-2	20 µM		inhibition	-0.0737%
CC[C@H](C)[C@H](NC(=O)[C@H](CC(C)C)NC(=O)[C@H](Cc1c[nH]c2ccccc12)NC(=O)[C@H](CCC(N)=O)NC(=O)[C@@H](NC(=O)[C@H](Cc1ccccc1)NC(=O)[C@H](C)NC(=O)[C@H](CCCCNC(=O)COCCOCCNC(=O)COCCOCCNC(=O)CC[C@H](NC(=O)CCCCCCCCCCCCCCCCCCC(=O)O)C(=O)O)NC(=O)[C@H](CCC(N)=O)NC(=O)[C@H](C)NC(=O)[C@@H](NC(=O)[C@H](CCCCN)NC(=O)[C@H](CC(=O)O)NC(=O)[C@H](CC(C)C)NC(=O)C(C)(C)NC(=O)[C@@H](NC(=O)[C@H](CO)NC(=O)[C@H](Cc1ccc(O)cc1)NC(=O)[C@H](CC(=O)O)NC(=O)[C@H](CO)NC(=O)[C@@H](NC(=O)[C@H](Cc1ccccc1)NC(=O)[C@@H](NC(=O)CNC(=O)[C@H](CCC(=O)O)NC(=O)C(C)(C)NC(=O)[C@@H](N)Cc1ccc(O)cc1)[C@@H](C)O)[C@@H](C)O)[C@@H](C)CC)[C@@H](C)CC)C(C)C)C(=O)N[C@@H](C)C(=O)NCC(=O)NCC(=O)N1CCC[C@H]1C(=O)N[C@@H](CO)C(=O)N[C@@H](CO)C(=O)NCC(=O)N[C@@H](C)C(=O)N1CCC[C@H]1C(=O)N1CCC[C@H]1C(=O)N1CCC[C@H]1C(=O)N[C@@H](CO)C(N)=O		item: treatment-emergent decreased appetite	healthy subjects	0.5 mg, multiple ascending dose		subjects with adverse event	0%
CCOP(=O)(OCC)Oc1ccc([N+](=O)[O-])cc1	Phosphotriesterase-like lactonase (Geobacillus stearothermophilus, UniProt D0VX06)					Km	2100 ± 320 µM

Substance	target or system	assay	system	conditions	how to read	measurement	result
CC[C@H](C)[C@H](NC(=O)[C@H](CO)NC(=O)[C@H](CC(=O)O)NC(=O)[C@H](CC(C)C)NC(=O)[C@H](CCCCN)NC(=O)[C@H](CCC(N)=O)NC(=O)[C@H](CC(N)=O)NC(=O)[C@H](CO)NC(=O)[C@H](CCCNC(=N)N)NC(=O)[C@H](CCCNC(=N)N)NC(=O)[C@@H](NC(=O)[C@H](Cc1c[nH]c2ccccc12)NC(=O)[C@H](CCC(=O)O)NC(=O)[C@H](CCCCN)NC(=O)[C@H](CO)NC(=O)[C@H](CCC(=O)O)NC(=O)[C@H](CCC(=O)O)NC(=O)[C@H](CC(C)C)NC(=O)[C@H](CC(=O)O)NC(=O)[C@H](CO)NC(=O)[C@H](CCCCN)NC(=O)[C@@H](NC(=O)[C@H](CCCCN)NC(=O)[C@H](CC(N)=O)NC(=O)[C@H](CC(C)C)NC(=O)[C@@H](NC(=O)[C@@H](NC(=O)[C@H](CO)NC(=O)[C@@H](NC(=O)[C@H](CC(=O)O)NC(=O)[C@@H](NC(=O)[C@@H]1CCCN1C(=O)[C@H](CC(=O)O)NC(=O)[C@H](CC(C)C)NC(=O)[C@H](C)NC(=O)[C@@H](NC(C)=O)C(C)C)[C@@H](C)CC)[C@@H](C)CC)[C@@H](C)CC)C(C)C)[C@@H](C)CC)[C@@H](C)CC)C(N)=O	Fusion glycoprotein F0, HRN domain (F, Human parainfluenza 3 virus, UniProt P06828)	co-assembly, HPIV3 HRN, with, variable-temperature CD	PBS	50 µM, 1:1 mixture		melting temperature	88 °C
LARNCRAPR	HLA class I histocompatibility antigen, A alpha chain	peptide binding, iTopia affinity	peptide			ED50	24 µM
Nc1ncnc2c1ncn2[C@H]1C[C@H](O)[C@@H](COP(=O)(O)OP(=O)(O)OP(=O)(O)O)O1	Gag-Pol polyprotein, reverse transcriptase (gag-pol, Human immunodeficiency virus type 1 group M subtype B, UniProt P04585, K653N)	substrate		K66N mutant, with: G:A mismatched primer template		Km	413 ± 267 µM
CC[C@H](C)[C@H](NC(=O)[C@H](CO)NC(=O)[C@H](Cc1ccc(O)cc1)NC(=O)[C@H](CC(=O)O)NC(=O)[C@H](CO)NC(=O)[C@@H](NC(=O)[C@H](Cc1ccccc1)NC(=O)[C@@H](NC(=O)CNC(=O)[C@H](CCC(=O)O)NC(=O)[C@@H](C)NC(=O)[C@@H](N)Cc1ccc(O)cc1)[C@@H](C)O)[C@@H](C)CC)C(=O)N[C@@H](C)C(=O)N[C@@H](CCSC)C(=O)N[C@@H](CC(=O)O)C(=O)N[C@@H](CCCCN)C(=O)N[C@H](C(=O)N[C@@H](Cc1c[nH]cn1)C(=O)N[C@@H](CCC(N)=O)C(=O)N[C@@H](CCC(N)=O)C(=O)N[C@@H](CC(=O)O)C(=O)N[C@@H](Cc1ccccc1)C(=O)N[C@H](C(=O)N[C@@H](CC(N)=O)C(=O)N[C@@H](Cc1c[nH]c2ccccc12)C(=O)N[C@@H](CC(C)C)C(=O)N[C@@H](CC(C)C)C(=O)N[C@@H](C)C(=O)N[C@@H](CCC(N)=O)C(=O)NCC(=O)N1CCC[C@H]1C(=O)N[C@@H](CO)C(=O)N[C@@H](CO)C(=O)NCC(=O)N[C@@H](C)C(=O)N1CCC[C@H]1C(=O)N1CCC[C@H]1C(=O)N1CCC[C@H]1C(=O)N[C@@H](CO)C(=O)N[C@@H](CCCCN)C(N)=O)C(C)C)[C@@H](C)CC	Glucagon-like peptide 1 receptor (Mus musculus, UniProt O35659)	cAMP, agonist				Emax	39%
Cc1cn([C@H]2C=C[C@@H](COP(=O)(O)OP(=O)(O)OP(=O)(O)O)O2)c(=O)[nH]c1=O	gag-pol K653T reverse transcriptase	reverse transcriptase activity, inhibitor	HIV-1		relative to: K66T mutant over wild type	fold resistance	~2 fold
KNCRAPRKK	HLA class I histocompatibility antigen, A alpha chain	peptide binding, iTopia affinity	peptide			ED50	84.3 µM
CC(C)C[C@H](NC(=O)[C@@H]1CCCN1C(=O)[C@H](CCCNC(=N)N)NC(=O)[C@H](CC(C)C)NC(=O)[C@H](CCCNC(=N)N)NC(=O)[C@H](CC(=O)O)NC(=O)[C@H](Cc1ccc(O)cc1)NC(=O)[C@H](CC(=O)O)NC(=O)[C@H](CCC(=O)O)NC(=O)[C@H](CCC(N)=O)NC(=O)CN)C(=O)O	Epithelial sodium channel subunit beta	binding, bio-layer interferometry				koff	0.0228 s⁻¹
RASVLSGGK	HLA class I histocompatibility antigen, A alpha chain	peptide-MHC complex stability, iTopia off-rate	peptide			dissociation half-life	62.4 min
COc1cc2c3cc1Oc1cc(ccc1O)C[C@@H]1c4c(cc(OC)c(O)c4Oc4ccc(cc4)C[C@@H]3N(C)CC2)CC[N+]1(C)C	Chrnd/Chrna1/Chrne (Mus musculus, UniProt P02716+P04756+P20782)		mouse diaphragm	0.04 µM, AChE inhibited	relative to: control	response amplitude	88%
CC(C)[C@H](NC(=O)[C@H](Cc1ccccc1)NC(=O)[C@@H](N)Cc1ccc(O)cc1)C(=O)N[C@H](CCCNC(=N)N)C(=O)c1nc2ccccc2s1	Transmembrane protease serine 2 (TMPRSS2, Homo sapiens, UniProt O15393)	enzyme activity, inhibitor		1 nM		activity vs control	91%
C[C@H](NC(=O)C(=O)Nc1ccccc1C(C)(C)C)C(=O)N[C@@H](CC(=O)O)C(=O)COc1c(F)c(F)cc(F)c1F	rep main protease	reporter gene (Gaussia luciferase), inhibitor		20 µM		inhibition	0.108%
C[C@@H]1Cc2c(Cl)cc(C(=O)N[C@@H](Cc3ccccc3)C(=O)O)c(O)c2C(=O)O1	Solute carrier family 22 member 11 (SLC22A11, Homo sapiens, UniProt Q9NSA0)	substrate	CHO cells expressing human OAT4	5 min, pH 7.4		Jmax	3.1 ± 0.9 pmol/cm2/min
CNC(=O)[C@@H](NC(=O)[C@H](CC(C)C)[C@H](O)C(=O)NO)C(C)(C)C	snake venom metalloproteinase	proteolytic activity, inhibitor	Daboia russelii, venom AP	with: azocasein		IC50	1.99 µM and 1.93 µM and 1.95 µM
ARNCRAPRK	HLA class I histocompatibility antigen, A alpha chain	iTopia binding	peptide	11 µM, 18 h, 21 °C	relative to: positive control	peptide binding	73.5%
Cc1cn([C@H]2C[C@H](O)[C@@H](COP(=O)(O)OP(=O)(O)OP(=O)(O)O)O2)c(=O)[nH]c1=O	Gag-Pol polyprotein, reverse transcriptase (gag-pol, Human immunodeficiency virus type 1 group M subtype B, UniProt P04585)	substrate		misinsertion opposite template T		Km	71.9 ± 63.3 µM

Excerpt of the above:
Substance	target or system	assay	system	conditions	how to read	measurement	result
CC[C@H](C)[C@H](NC(=O)[C@@H](NC(=O)[C@H](CC(C)C)NC(=O)[C@H](CC(N)=O)NC(=O)[C@H](CC(=O)O)NC(=O)[C@H](CCC(=O)O)NC(=O)[C@@H](NC(=O)[C@@H](N)CCCNC(=N)N)[C@@H](C)CC)C(C)C)C(=O)N[C@H](C(=O)N[C@@H](CCCNC(=N)N)C(=O)O)[C@@H](C)CC	Epithelial sodium channel subunit beta	binding, bio-layer interferometry				koff	0.0507 s⁻¹
CCN(CC)c1nc(C)cc(OP(=S)(OC)OC)n1	uncharacterized protein	enzyme activity, inhibitor	Sf9 cell homogenate	22.94 µM, 0.1667 h, with: α-naphthyl acetate substrate	relative to: no inhibitor	remaining activity	94.9%
O=c1c(I)ccc2n1C[C@@H]1CNC[C@H]2C1	α7* nAChR, mouse		DBA/2J mice, dentate gyrus granular layer	intravenous infusion, 0.2 mg/kg/h, 7 days	relative to: saline	change in binding sites	63.5%
